Results collected from several papers.
Each numbered part is a random draw from the data of one study; scales do not carry over between parts. Positions count from the first letter of the parent shown.

Study 1 — target: CREB3L1, bZIP domain (human); method: DHFR protein complementation; matrix: yeast; baseline: wild-type JUN-FOS pair; reading: higher = stronger binding
Notes: single substitutions, most at no-binding floor
Starting sequence: JUN, bZIP domain (human); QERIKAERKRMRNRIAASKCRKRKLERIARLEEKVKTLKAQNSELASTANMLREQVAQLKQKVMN; partner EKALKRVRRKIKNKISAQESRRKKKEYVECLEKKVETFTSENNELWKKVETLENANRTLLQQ
Variant	binding fitness
E54N	-1.52 natural log
T37R	-1.42 natural log
S43L	-1.35 natural log
K36I	-1.4 natural log
Q55F	-1.44 natural log
L38W	-1.51 natural log
R53T	-1.43 natural log
E44T	-1.42 natural log
A40Q	-1.31 natural log
Q58S	-1.39 natural log
K39M	-1.26 natural log
L31F	-1.44 natural log
V56P	-1.49 natural log
L38K	-1.44 natural log
K39S	-1.42 natural log
L52I	-1.47 natural log
M51D	-1.25 natural log
R53A	-1.38 natural log
E44C	-1.14 natural log
E44K	-1.27 natural log

Study 2 — method: RNA Bind-n-Seq; form: RNA; matrix: in vitro; concentration: 200 nM; notes: whole 134-nt RNA, ends assumed; together with: 150 mM LiCl; baseline: input library; reading: higher = stronger binding; each molecule: 7-deaza-guanosine replaces G
Target: Fragile X messenger ribonucleoprotein 1, C-terminal low-complexity region (Fmr1, Mus musculus, UniProt P35922)
Constant ends, left off below: GGGAGUUCUACAGUCCGACGAUC … UGGAAUUCUCGGGUGUCAAGG
Oligonucleotide	log2 enrichment
UAACUUUAGAGGAGGAUCUGAUGGAUAUGGCAUUGGACGUGGAUUUGGGGAUGGCUAUAAUGGGUAUGGAGGAGGACCUGGAGGUGGCAA	0.116
UCCUGUGCUACACAUCGUAUGUACCGAAUCGGGGUUUGGGGAAAGGGGUUUUUUUGGGGAAAGUAUUAUGUUACGCCGUUCGGAUCUGCA	-0.4
UGGCCCUGGUGGCAUGCGGGGAGGAAGAGGUGGCCUCAUGGAUCGUGGUGGUCCCGGUGGAAUGUUCAGAGGUGGCCGUCGUGGAGACAG	-1.15
UAACUUUAGAGGAGGAUCUGAUGGAUAUGGCAGUGGACGUGGCUUUGGGGAUGGCUAUAAUGGGUAUGGAGGAGGACCUGGAGGUGGCAA	-0.0417
GCAGGAAGUAAAAACAAAUGGAAAUGCUUCGGAUAGUGGCAGGGGUGGGGGUUGCUAAGGUAAGGGUGGGAUGGGAGUGGGUAAAGAGUU	1.55
UAACUUUAGAGGAGGCUCUGAUGGAUAUGGCAGUGGACGUGGAUUUGGGGAUGGCUAUAAUGGGUAUGGAGGAGGACCUGGAGGUGGCAA	-0.144
UUCAGGAUUGUGAGGGUGAAACUCCCAUUCACAAGGCAGCUCGCUCUGGGAGCCUAGAAUGCAUCAGUGCCCUUGUGGCGAAUGGGGCUC	-1.7
UGGCCCUGGUGGCAAGCGGGGAGGAAGAGGUGGCCUCAUGGAUCGUGGUGGUCCCGGUGGAAUGUUCAGAGGUGGCCGUGGUGGAGACAG	0.413
UUUUCUGUUUGAAACAGUUUUAUACUUUCUGAUAUAGUACUUGAAAUUCUUACCAGAAAAUUACUUUGGAGUUUUGAAGCCUUUAUUAAU	-0.0708
UGUGCUACACAUCGUAUGUACCGAAUCGGGGAAAAAAAGGGGAAAAAAAGGGGUUUUUGGGGAAAGUAUUAUGUUACGCCGUUCGGAUCU	-0.422
UCCUGUGCUACACAUCGUAUGUACCGAAUCGGGUUUUUUGGUUUUUUGGUUUUUUGGGGAAAGUAUUAUGUUACGCCGUUCGGAUCUGCA	-1.34

Study 3 — method: universal PBM; form: double-stranded DNA, one strand shown; matrix: in vitro; concentration: 600 nM; reading: higher = stronger binding
Target: Sal-like protein 4, full length isoform A (SALL4, Homo sapiens, UniProt Q9UJQ4, residues 1-1053)
Chain of UniProt Q9UJQ4 (whole entry, looked up): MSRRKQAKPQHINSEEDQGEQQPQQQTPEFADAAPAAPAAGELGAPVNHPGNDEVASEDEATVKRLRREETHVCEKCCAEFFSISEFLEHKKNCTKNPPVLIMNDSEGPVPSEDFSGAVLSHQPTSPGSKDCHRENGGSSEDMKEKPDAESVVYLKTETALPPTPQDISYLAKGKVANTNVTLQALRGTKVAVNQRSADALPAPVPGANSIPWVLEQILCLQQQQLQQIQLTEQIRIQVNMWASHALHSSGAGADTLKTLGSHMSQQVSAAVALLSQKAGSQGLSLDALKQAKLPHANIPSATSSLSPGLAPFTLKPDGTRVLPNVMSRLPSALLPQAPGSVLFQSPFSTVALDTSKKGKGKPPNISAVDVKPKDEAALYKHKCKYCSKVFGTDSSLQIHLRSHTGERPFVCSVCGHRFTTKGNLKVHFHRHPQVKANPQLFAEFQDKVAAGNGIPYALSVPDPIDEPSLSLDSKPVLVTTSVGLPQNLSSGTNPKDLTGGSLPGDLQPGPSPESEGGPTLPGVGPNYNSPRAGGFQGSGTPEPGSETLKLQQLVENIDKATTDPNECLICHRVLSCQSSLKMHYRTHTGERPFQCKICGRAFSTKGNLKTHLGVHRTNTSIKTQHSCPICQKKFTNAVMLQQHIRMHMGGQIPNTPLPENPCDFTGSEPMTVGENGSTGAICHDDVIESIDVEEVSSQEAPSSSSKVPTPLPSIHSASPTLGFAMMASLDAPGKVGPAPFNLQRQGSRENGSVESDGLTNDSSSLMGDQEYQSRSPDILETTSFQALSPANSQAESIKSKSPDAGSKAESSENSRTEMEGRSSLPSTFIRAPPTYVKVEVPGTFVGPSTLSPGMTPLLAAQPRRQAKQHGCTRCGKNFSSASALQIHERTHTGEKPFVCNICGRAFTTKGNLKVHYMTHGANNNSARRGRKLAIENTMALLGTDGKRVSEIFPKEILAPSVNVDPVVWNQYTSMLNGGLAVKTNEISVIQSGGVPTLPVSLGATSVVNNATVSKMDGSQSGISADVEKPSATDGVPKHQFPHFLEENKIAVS
Notes: 8-mer, flanks averaged, mean of replicates
Oligonucleotide	E-score
GAGACGAC	-0.168
AACGAAGG	-0.113
AATCAAGG	0.111
CAGTCCTA	-0.0169
GAGCCCCA	-0.327
GGTATCCA	-0.116
AGTGCCGC	-0.23
GCAGCCGA	-0.219
AATACTAG	0.17
ATGGGGGG	-0.275
ATTGGGTC	-0.134
GTAGGCTA	-0.0407
CGTCGTAA	-0.00675
TCGGGGCA	-0.253
AGAAGGAG	-0.084
AGGGACAC	-0.122
AAACGATG	0.165
CCAACATA	0.226
CCCTTACA	0.0687
CAATACTC	0.242
GAGACAAA	0.0394
GAGGCCTC	-0.269

Study 4 — cell line: yeast with cyclin E2-Cln2 chimera; read-out: cell growth; mode: binder; method: competitive growth deep sequencing; form: peptide; concentration: concentration not given; notes: peptide tiling library; reading: direction not given
Sequence	growth enrichment score
TRRRLFVENDSP	1.31
SGYLTDENEVGFRG	0.295
SDSTVTKLDFDLEP	0.357
FQDSGYNELKSCSFDN	0.321
KDDDKAWEYEERDRRS	0.454
RNRGPKLNAMLRLGVL	0.171
NFETPEAETPIRSPFK	0.00814
LENIEPLQVSFAVLSS	-0.171
VLPGGVPSPGASLTSM	-0.733
QNPCGSKACRRLFGPV	1.26
PQWPCGKHKRVLIFAS	0.141
AEHPKPSACRNLFGPV	1.29
VRDLSYRLVFLACCVA	-0.0985
VLVRTSACRSLFGPVD	0.749
DGCSPIKNWSPMRL	0.46
TSPGPVLLHPSPSTTQ	-0.0374
GAEELEDLVHFSVSEL	1.14
NNIRKALSFDNRGEEH	0.38

Study 5 — method: RNA Bind-n-Seq; form: RNA; matrix: in vitro; concentration: 365 nM; baseline: no-protein control; reading: higher = stronger binding
Target: RNA binding protein fox-1 homolog 2, RRM domain, GST-SBP tag (RBFOX2, Homo sapiens, UniProt O43251-10, residues 100-194)
Notes: natural RNA segment, single round, ends assumed
Constant ends, left off below: GGGAGUUCUACAGUCCGACGAUC … UGGAAUUCUCGGGUGCCAA
Construct (chain): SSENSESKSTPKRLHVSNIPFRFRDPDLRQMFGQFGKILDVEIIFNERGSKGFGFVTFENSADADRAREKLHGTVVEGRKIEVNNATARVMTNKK
Oligonucleotide	RBNS enrichment (R)
UGGAGCGCUGCUGUGACCACUGCCCUGGGCAGAAGGCCUGGAUGUCUCACUACUGAGCACCGAUGUGUAUGAUACUACAGACUAUAUUAAAGUGGAGUAACAUUUCUUUC	0.539
UCUAGGGAUCCAGUUGUGCAGUAGAGUUCAGACUUCUCAUCCAAUCUUAUAUUGUAGGCAUUUCUCAAGUGUUUUAGAUAUUAAUAACUAACAUUGGGAUUUUACUUUGC	0.294
CAUAGUUCCUUAUACACAGACACCUGCAUCAUCGAAGGUCUUUUUUUCCUAAAAAAAAAAAAUGGGAUUUUAGUUCUUAUUCUGUGAUAACUAUCCUCCUCAUAUAAUAC	0.713
GCUACGUCUGCUGUAGUUCCAUUUUGUAUGUUGUGUAAAGCGAGCAUCGAUCGAAGCAAAAGGUGAUGUGUGUAUAUCAGAAAAAAGAAAUUAACUGUAUAUCAUUCCAG	1.82
AUUCCUUUUGUAGAUGAGUAUGAUUUUGAAACUGAAGAAAUUAAUACAGAGGCAAGAUUUUAGGAGUUUGAAUUGGUUCUUGUUUGUUCUCAUUCUACAUAUAAUUUUGU	1.96
CACUGACUUAAAAAUUUUAAUUUCUAUAGUUAAGAUUUACAACAUAAUAUAGAGUGAAAGUUAACAUACUAACAUUUCUCCUUUGGAGGAAGUUUUAAUCCACUUCAGGA	0.426
UCAUCUAGUUAAAAAAAAGAGUGUUAGCAAAUGUGCCACUUCUCCAUAGUUUUUAAUCCCAAAGUUAUUUAAACAUCAGUAAGACAAGGUACCACUUCAUACAGUGAAAA	0.548
CAAGGGAAGGCUUGGUCUGCGUUUUCUGUGUUUGGAUUAUUUUUAUACUUUGCUGAUCUUUAAGCUAUCCAUGGGGGAAAUUUUAUACCAACGAGUUAAUAAUUCUCAUU	0.97
GGGGUCCCAAGGUUGCCACCCACGUGCCCAGCUGUCCCACGCUGCAGCGCAGACGGCCACGCCCACACCCGGCCUUUUAGCUCAGGUCCACCAUGGGGGACGGCCCAGCG	0.448
UUCUGCUCUGGGCUGUGAAGGGGUGGAGCAGGCAGUGGCCAGCUUUGCCCUUCCUGCUGUCUCUGUUUCUAGCUCCAUGGUUGGCCUGGUGGGGGUGGAGUUCCCUCCCA	0.574
AAGUCAUACCCUGUGAGUAACUGGCCUGUAAUGGCGCUCUUCCUAGGACAGUGGUGACCUUGUCUGUGCCGGUGACUGCACCCUGCAGGUAACAGUGAAAGCUUUUAAGC	0.22
UAUAUAUAUUUAAGUACAGUUUUCAUCAGGAGGUUUUAAAGGCCAUAUUGCUAACCUCACCAAAAGGUUUCGGGAACUGGAGGAAGUAUUAAUGUACAACUCACCACUUC	0.471

Study 6 — method: protein binding microarray; form: double-stranded DNA, one strand shown; matrix: in vitro; concentration: not given; baseline: not given; reading: higher = stronger binding
Target: Histone acetyltransferase KAT6A, winged helix 2, GST fusion (KAT6A, Homo sapiens, UniProt Q92794, residues 85-181)
Notes: 8-mer, flanks averaged, mean of 2 arrays, mostly near background
Target sequence (chain): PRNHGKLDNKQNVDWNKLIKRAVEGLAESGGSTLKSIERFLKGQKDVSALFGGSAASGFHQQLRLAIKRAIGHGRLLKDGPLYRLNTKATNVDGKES
Oligonucleotide	E-score
ACTCTGCA	-0.024
ATTCCTCC	0.145
TTGGAAAA	-0.0268
GATAAGCC	-0.0854
CTAAGGTA	0.00851
CACCGAGG	0.0601
ATCTAAGC	-0.0139
AATGATTC	0.105
ACTACAAT	-0.012
CACTAAGA	0.0273
ATCCCTGG	0.068
CTGGCGAA	0.0803
ACGTGATA	-0.232
GGTTATAC	-0.239
GTACCTAC	-0.132
GTAAGATA	0.0809

A few entries again (study 5):
Oligonucleotide	RBNS enrichment (R)
UCUAGGGAUCCAGUUGUGCAGUAGAGUUCAGACUUCUCAUCCAAUCUUAUAUUGUAGGCAUUUCUCAAGUGUUUUAGAUAUUAAUAACUAACAUUGGGAUUUUACUUUGC	0.294
AAGUCAUACCCUGUGAGUAACUGGCCUGUAAUGGCGCUCUUCCUAGGACAGUGGUGACCUUGUCUGUGCCGGUGACUGCACCCUGCAGGUAACAGUGAAAGCUUUUAAGC	0.22
GGGGUCCCAAGGUUGCCACCCACGUGCCCAGCUGUCCCACGCUGCAGCGCAGACGGCCACGCCCACACCCGGCCUUUUAGCUCAGGUCCACCAUGGGGGACGGCCCAGCG	0.448
UCAUCUAGUUAAAAAAAAGAGUGUUAGCAAAUGUGCCACUUCUCCAUAGUUUUUAAUCCCAAAGUUAUUUAAACAUCAGUAAGACAAGGUACCACUUCAUACAGUGAAAA	0.548
GCUACGUCUGCUGUAGUUCCAUUUUGUAUGUUGUGUAAAGCGAGCAUCGAUCGAAGCAAAAGGUGAUGUGUGUAUAUCAGAAAAAAGAAAUUAACUGUAUAUCAUUCCAG	1.82
UAUAUAUAUUUAAGUACAGUUUUCAUCAGGAGGUUUUAAAGGCCAUAUUGCUAACCUCACCAAAAGGUUUCGGGAACUGGAGGAAGUAUUAAUGUACAACUCACCACUUC	0.471
CAUAGUUCCUUAUACACAGACACCUGCAUCAUCGAAGGUCUUUUUUUCCUAAAAAAAAAAAAUGGGAUUUUAGUUCUUAUUCUGUGAUAACUAUCCUCCUCAUAUAAUAC	0.713
CACUGACUUAAAAAUUUUAAUUUCUAUAGUUAAGAUUUACAACAUAAUAUAGAGUGAAAGUUAACAUACUAACAUUUCUCCUUUGGAGGAAGUUUUAAUCCACUUCAGGA	0.426
UGGAGCGCUGCUGUGACCACUGCCCUGGGCAGAAGGCCUGGAUGUCUCACUACUGAGCACCGAUGUGUAUGAUACUACAGACUAUAUUAAAGUGGAGUAACAUUUCUUUC	0.539
UUCUGCUCUGGGCUGUGAAGGGGUGGAGCAGGCAGUGGCCAGCUUUGCCCUUCCUGCUGUCUCUGUUUCUAGCUCCAUGGUUGGCCUGGUGGGGGUGGAGUUCCCUCCCA	0.574
AUUCCUUUUGUAGAUGAGUAUGAUUUUGAAACUGAAGAAAUUAAUACAGAGGCAAGAUUUUAGGAGUUUGAAUUGGUUCUUGUUUGUUCUCAUUCUACAUAUAAUUUUGU	1.96
CAAGGGAAGGCUUGGUCUGCGUUUUCUGUGUUUGGAUUAUUUUUAUACUUUGCUGAUCUUUAAGCUAUCCAUGGGGGAAAUUUUAUACCAACGAGUUAAUAAUUCUCAUU	0.97
